Measured values of several laboratories.
Compare with care: the assays were run in different laboratories. ± marks the error that the study gave.
RMS3: RMS3 (Lathyrus oleraceus, UniProt A0A109QYD3)
UniProt A0A109QYD3, sequence (whole entry, looked up): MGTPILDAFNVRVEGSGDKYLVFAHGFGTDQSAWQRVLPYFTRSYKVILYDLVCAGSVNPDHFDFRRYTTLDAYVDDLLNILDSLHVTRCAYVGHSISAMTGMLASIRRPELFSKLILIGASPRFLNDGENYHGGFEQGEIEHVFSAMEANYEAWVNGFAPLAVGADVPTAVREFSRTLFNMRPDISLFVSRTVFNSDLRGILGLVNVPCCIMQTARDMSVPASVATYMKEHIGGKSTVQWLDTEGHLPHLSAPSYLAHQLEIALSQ
FGFR3: Fibroblast growth factor receptor 3 (FGFR3, Homo sapiens, UniProt P22607)
UniProt P22607, sequence (whole entry, looked up): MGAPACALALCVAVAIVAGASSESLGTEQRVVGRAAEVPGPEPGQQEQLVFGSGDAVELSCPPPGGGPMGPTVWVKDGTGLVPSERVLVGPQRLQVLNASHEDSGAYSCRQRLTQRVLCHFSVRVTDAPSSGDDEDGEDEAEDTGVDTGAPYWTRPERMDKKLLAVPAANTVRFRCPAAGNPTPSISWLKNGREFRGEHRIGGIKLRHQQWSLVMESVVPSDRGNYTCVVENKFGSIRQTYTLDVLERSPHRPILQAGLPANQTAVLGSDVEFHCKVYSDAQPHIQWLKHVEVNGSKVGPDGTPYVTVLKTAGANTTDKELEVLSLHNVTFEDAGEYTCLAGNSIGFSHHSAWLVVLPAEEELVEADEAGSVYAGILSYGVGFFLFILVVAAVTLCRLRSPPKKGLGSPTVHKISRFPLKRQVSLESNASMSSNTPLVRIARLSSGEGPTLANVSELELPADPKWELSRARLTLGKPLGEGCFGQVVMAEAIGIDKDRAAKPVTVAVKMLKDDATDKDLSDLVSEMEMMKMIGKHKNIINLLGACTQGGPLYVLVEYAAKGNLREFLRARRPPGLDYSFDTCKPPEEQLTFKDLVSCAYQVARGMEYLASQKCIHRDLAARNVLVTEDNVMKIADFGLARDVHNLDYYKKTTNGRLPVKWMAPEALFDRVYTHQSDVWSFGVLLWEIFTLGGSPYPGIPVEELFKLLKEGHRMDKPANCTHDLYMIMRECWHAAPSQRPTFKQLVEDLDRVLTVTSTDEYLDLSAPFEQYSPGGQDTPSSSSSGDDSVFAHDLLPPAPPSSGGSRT
UniProt Q9H4B4, sequence (whole entry, looked up): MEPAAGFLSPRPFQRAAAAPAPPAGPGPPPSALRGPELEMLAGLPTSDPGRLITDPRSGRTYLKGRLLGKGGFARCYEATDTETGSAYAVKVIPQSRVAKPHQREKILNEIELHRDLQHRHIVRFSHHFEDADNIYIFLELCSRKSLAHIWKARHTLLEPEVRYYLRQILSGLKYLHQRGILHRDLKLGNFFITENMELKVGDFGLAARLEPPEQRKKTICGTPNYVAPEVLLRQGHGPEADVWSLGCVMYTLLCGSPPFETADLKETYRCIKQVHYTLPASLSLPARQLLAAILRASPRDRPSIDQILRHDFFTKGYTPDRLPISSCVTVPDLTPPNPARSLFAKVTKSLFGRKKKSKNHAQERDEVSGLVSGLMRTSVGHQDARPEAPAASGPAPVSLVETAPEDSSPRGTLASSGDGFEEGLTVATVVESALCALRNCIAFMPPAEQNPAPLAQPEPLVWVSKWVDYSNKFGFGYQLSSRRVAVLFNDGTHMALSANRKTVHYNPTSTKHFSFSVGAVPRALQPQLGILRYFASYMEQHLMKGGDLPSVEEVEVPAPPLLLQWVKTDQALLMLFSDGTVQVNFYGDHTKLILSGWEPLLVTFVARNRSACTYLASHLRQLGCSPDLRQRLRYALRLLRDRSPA
UniProt P31224, sequence (whole entry, looked up): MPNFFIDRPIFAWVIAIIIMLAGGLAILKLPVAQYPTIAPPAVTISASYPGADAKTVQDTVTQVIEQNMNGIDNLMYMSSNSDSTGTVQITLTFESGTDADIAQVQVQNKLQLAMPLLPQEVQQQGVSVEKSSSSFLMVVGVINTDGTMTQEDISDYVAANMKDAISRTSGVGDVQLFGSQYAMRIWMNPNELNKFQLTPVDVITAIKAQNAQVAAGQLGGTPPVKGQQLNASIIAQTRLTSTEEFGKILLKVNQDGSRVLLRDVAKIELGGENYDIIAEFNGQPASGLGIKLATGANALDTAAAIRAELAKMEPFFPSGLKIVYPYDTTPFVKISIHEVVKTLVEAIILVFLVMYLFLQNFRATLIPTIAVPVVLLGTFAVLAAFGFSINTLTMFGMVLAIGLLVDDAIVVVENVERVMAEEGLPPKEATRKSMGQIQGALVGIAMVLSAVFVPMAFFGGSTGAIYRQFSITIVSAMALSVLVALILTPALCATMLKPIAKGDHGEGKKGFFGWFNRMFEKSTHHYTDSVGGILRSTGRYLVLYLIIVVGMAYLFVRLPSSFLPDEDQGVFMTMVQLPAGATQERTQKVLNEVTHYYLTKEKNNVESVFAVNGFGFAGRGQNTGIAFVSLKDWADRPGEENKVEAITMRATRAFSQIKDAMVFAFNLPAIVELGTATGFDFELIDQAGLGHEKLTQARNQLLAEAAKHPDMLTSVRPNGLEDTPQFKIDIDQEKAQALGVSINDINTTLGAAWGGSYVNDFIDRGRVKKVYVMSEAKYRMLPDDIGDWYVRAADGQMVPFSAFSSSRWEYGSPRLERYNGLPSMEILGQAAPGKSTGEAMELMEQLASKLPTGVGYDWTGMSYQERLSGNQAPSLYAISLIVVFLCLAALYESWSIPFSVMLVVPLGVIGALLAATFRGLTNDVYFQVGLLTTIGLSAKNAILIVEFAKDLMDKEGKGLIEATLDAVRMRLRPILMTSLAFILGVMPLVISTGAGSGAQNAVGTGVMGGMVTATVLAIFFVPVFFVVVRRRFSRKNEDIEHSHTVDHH
UniProt P27467, sequence (whole entry, looked up): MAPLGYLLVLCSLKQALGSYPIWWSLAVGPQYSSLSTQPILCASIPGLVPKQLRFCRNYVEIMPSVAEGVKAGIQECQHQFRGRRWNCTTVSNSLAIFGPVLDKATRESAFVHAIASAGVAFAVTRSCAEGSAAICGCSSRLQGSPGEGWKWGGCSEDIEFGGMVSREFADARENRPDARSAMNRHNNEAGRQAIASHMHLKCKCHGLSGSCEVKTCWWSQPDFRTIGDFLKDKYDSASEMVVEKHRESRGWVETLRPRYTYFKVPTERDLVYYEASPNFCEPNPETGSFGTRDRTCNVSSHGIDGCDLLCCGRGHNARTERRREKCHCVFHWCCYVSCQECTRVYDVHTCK
UniProt Q02790, sequence (whole entry, looked up): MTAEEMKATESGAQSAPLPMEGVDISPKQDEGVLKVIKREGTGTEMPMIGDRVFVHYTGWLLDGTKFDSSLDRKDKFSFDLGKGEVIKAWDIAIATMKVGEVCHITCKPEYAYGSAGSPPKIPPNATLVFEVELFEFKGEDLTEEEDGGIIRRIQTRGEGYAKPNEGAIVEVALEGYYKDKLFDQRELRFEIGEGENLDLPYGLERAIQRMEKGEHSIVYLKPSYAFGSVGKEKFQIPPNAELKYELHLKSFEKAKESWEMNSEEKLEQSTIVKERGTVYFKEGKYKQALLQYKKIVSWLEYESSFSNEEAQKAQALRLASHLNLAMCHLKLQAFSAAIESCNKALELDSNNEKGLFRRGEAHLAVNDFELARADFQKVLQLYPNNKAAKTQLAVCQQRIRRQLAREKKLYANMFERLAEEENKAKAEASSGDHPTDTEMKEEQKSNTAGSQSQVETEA
UniProt Q16548, sequence (whole entry, looked up): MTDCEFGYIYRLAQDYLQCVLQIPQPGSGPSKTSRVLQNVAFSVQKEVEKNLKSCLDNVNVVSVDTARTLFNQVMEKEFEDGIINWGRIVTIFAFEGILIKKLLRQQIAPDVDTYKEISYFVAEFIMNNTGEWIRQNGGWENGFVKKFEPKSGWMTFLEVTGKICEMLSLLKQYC
UniProt C0LGQ5, sequence (whole entry, looked up): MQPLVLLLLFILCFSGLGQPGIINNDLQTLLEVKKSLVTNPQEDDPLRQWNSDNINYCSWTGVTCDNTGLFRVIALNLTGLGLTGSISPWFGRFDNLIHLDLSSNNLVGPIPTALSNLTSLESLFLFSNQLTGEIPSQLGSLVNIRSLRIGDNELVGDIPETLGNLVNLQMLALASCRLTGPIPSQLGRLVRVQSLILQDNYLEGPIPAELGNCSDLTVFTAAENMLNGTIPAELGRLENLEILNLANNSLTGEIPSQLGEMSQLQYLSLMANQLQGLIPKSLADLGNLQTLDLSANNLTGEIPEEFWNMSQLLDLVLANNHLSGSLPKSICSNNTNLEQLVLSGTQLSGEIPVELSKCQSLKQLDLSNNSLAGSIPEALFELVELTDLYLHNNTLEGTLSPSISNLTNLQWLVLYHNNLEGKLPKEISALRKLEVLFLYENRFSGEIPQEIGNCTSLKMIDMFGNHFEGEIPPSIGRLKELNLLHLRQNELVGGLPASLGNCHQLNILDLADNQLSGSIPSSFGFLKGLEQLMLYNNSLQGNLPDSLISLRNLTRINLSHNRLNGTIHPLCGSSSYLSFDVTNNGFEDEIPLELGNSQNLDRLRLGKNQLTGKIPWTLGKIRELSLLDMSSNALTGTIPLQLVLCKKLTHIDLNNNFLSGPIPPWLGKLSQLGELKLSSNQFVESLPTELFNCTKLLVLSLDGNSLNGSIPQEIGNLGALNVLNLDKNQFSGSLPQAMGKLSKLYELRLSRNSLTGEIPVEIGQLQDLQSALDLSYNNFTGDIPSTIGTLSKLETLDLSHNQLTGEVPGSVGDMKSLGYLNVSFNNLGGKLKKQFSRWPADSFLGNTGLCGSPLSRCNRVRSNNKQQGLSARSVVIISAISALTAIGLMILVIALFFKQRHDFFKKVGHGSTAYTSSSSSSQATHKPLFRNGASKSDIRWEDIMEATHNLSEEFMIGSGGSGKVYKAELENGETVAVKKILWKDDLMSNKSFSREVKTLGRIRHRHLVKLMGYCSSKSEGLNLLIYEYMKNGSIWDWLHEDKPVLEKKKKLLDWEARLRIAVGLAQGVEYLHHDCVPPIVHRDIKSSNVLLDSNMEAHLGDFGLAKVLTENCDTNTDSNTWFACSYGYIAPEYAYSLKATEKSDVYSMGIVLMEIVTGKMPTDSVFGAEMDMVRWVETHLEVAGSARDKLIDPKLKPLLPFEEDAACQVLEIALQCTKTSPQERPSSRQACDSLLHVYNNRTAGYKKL

Structure (SMILES) | target | test | test system | conditions | Kd [µM]
CC[C@H](C)[C@H](NC(=O)[C@H](CC(C)C)NC(=O)[C@H](CCCCN)NC(=O)[C@H](Cc1ccccc1)NC(=O)[C@@H]1CCCN1C(=O)[C@@H]1CCCN1C(=O)[C@H](CCCNC(=N)N)NC(=O)[C@@H](NC(=O)[C@H](CC(C)C)NC(=O)[C@H](CCCCN)NC(=O)[C@@H]1CCCN1C(=O)[C@H](CCCCN)NC(=O)[C@@H]1CCCN1C(=O)[C@H](CO)NC(=O)[C@H](CO)NC(=O)[C@H](Cc1c[nH]cn1)NC(=O)CNC(=O)[C@H](Cc1ccc(OS(=O)(=O)O)cc1)NC(=O)[C@@H](N)CC(=O)O)C(C)C)C(=O)N1CCC[C@H]1C(=O)N[C@@H](CC(N)=O)C(=O)O | LRR receptor-like serine/threonine-protein kinase GSO1, ectodomain (GSO1, Arabidopsis thaliana, UniProt C0LGQ5) | grating-coupled interferometry | ectodomain | pH 5.0, 25 °C | ~0.001
CC(C)C[C@H](NC(=O)[C@@H]1CCCN1C(=O)CCOCCOCCOCCOCCOCCOCCOCCOCCNC(=S)Nc1ccc2c(c1)C(=O)OC21c2ccc(O)cc2Oc2cc(O)ccc21)C(=O)N[C@@H](Cc1cncn1CCCCCCCCc1ccccc1)C(=O)N[C@@H](CO)C(=O)N[C@H](C(N)=O)[C@@H](C)CP(=O)(O)O | Serine/threonine-protein kinase PLK3, polo-box domain (PLK3, Homo sapiens, UniProt Q9H4B4) |  |  |  | 0.46 ± 0.0992
Cc1cc(N)c2cc(NC(=O)c3ccc4c(-c5ccccc5O)cccc4c3)ccc2n1 | acrB (Escherichia coli, UniProt P31224) | binding, SPR |  |  | 4920
O=C(O)[C@]1(O)C[C@@H](O)[C@@H](O)[C@H](O)C1 | aroD (Salmonella typhimurium, UniProt P58687, K170M) | binding | Salmonella enterica |  | 224
CC[C@H](C)[C@H](NC(=O)[C@H](CCCNC(=N)N)NC(=O)[C@H](CCCNC(=N)N)NC(=O)[C@H](CC(C)C)NC(=O)[C@H](CCC(=O)O)NC(=O)[C@H](CCC(N)=O)NC(=O)[C@H](C)NC(=O)[C@@H](NC(=O)[C@H](CNC(=O)CCl)NC(=O)[C@H](CCCNC(=N)N)NC(=O)[C@H](CCCNC(=N)N)NC(=O)[C@@H]1CCCN1C(=O)[C@H](CCCNC(=N)N)NC(=O)[C@H](CCCNC(=N)N)NC(=O)[C@@H]1CCCN1C(=O)[C@H](CCCNC(=N)N)NC(=O)[C@H](CCCNC(=N)N)NC(=O)[C@@H]1CCCN1C(=O)[C@H](CCCNC(=N)N)NC(=O)[C@H](CCCNC(=N)N)NC(=O)[C@@H]1CCCN1C(=O)[C@H](CCCNC(=N)N)NC(=O)[C@H](CCCNC(=N)N)NC(=O)[C@@H]1CCCN1C(C)=O)[C@@H](C)CC)C(=O)NCC(=O)N[C@@H](CC(=O)O)C(=O)N[C@@H](CCC(=O)O)C(=O)N[C@@H](Cc1ccccc1)C(=O)N[C@@H](CC(N)=O)C(=O)N[C@@H](C)C(=O)N[C@@H](Cc1ccc(O)cc1)C(=O)N[C@@H](Cc1ccc(O)cc1)C(=O)N[C@@H](C)C(=O)N[C@@H](CCCNC(=N)N)C(=O)N[C@@H](CCCNC(=N)N)C(N)=O | Bcl-2-related protein A1 (Homo sapiens, UniProt Q16548) | binding, ITC |  |  | 0.023
CC1=C[C@@H](O/C=C2/C(=O)O[C@H]3c4ccccc4C[C@@H]23)OC1=O | RMS3 | binding, fluorescence |  |  | 35.9
CC[C@H](C)[C@H](NC(=O)CN)C(=O)NCC(=O)N[C@@H](CC(=O)O)C(=O)N1CCC[C@H]1C(=O)N[C@H](C(=O)N[C@H](C(=O)N[C@H]1CSSC[C@@H]2NC(=O)[C@H](CCCCN)NC(=O)[C@H]([C@@H](C)O)NC(=O)CNC(=O)[C@@H]3CCCN3C(=O)[C@H](CC(C)C)NC(=O)CNC(=O)[C@@H]3CSSC[C@H](NC(=O)[C@H]([C@@H](C)CC)NC(=O)[C@H](C)NC(=O)CNC(=O)[C@H](CO)NC(=O)[C@H](CCCCN)NC(=O)[C@H](CC(C)C)NC1=O)C(=O)N[C@@H](Cc1c[nH]cn1)C(=O)N1CCC[C@H]1C(=O)N[C@@H](C(C)C)C(=O)N[C@@H](Cc1ccccc1)C(=O)N[C@@H](CSSC[C@@H](C(=O)N[C@@H](CCCCN)C(=O)N[C@@H](CCCCN)C(=O)N1CCC[C@H]1C(=O)O)NC2=O)C(=O)N1CCC[C@H]1C(=O)N[C@@H](CCCNC(=N)N)C(=O)N[C@@H](CCCNC(=N)N)C(=O)N[C@@H](Cc1ccc(O)cc1)C(=O)N[C@@H](CCCCN)C(=O)N[C@@H](CCC(N)=O)C(=O)N[C@@H]([C@@H](C)CC)C(=O)NCC(=O)N[C@@H]([C@@H](C)O)C(=O)N3)[C@@H](C)O)C(C)C | sapA (Haemophilus influenzae, UniProt Q4QL73) | binding, SPR |  | pH 7.5, 25 °C, together with: immobilised full-length defensin | 0.0175
CC[C@H](C)[C@H](NC(=O)[C@H](CCCCN)NC(=O)[C@H](CCC(N)=O)NC(=O)[C@H](CC(C)C)NC(=O)[C@@H](NC(=O)CNC(=O)[C@H](CCC(N)=O)NC(=O)[C@H](CCSC)NC(=O)[C@H](CC(C)C)NC(=O)[C@H](CC(=O)O)NC(=O)[C@H](CCCNC(=N)N)NC(=O)[C@H](CC(C)C)NC(=O)[C@H](C)NC(=O)[C@H](CCCNC(=N)N)NC(=O)[C@@H](NC(=O)[C@@H](NC(=O)[C@@H](N)[C@@H](C)O)C(C)C)[C@@H](C)O)[C@@H](C)CC)C(=O)O | Type 3 secretion system chaperone PscG, with PscE (pscG, Pseudomonas aeruginosa, UniProt P95435) | isothermal titration calorimetry |  | 25 °C | 0.0515
CC[C@H](C)[C@H](NC(=O)[C@H](Cc1ccc(O)cc1)NC(=O)[C@H](CCCNC(=N)N)NC(=O)[C@H](Cc1ccc(O)cc1)NC(=O)[C@H](CCSC)NC(C)=O)C(=O)N[C@H]1CSCc2cccc(c2)CSC[C@@H](C(=O)N[C@@H](CC(C)C)C(=O)N[C@@H](C)C(=O)N[C@@H](CO)C(=O)N[C@@H](Cc2ccc(O)cc2)C(=O)NCC(=O)N[C@@H](CO)C(=O)NCC(=O)N[C@@H](CO)C(=O)NCC(=O)N[C@@H](CO)C(=O)N[C@@H](CC(=O)O)C(=O)N[C@@H](Cc2ccc(O)cc2)C(=O)N[C@@H](CCCCN)C(=O)N[C@@H](CC(=O)O)C(=O)N[C@@H](CC(=O)O)C(=O)N[C@@H](CC(=O)O)C(=O)N[C@@H](CC(=O)O)C(=O)N[C@@H](CCCCN)C(N)=O)NC(=O)[C@H](CC(N)=O)NC(=O)[C@H](CO)NC(=O)[C@H](CC(C)C)NC(=O)[C@H]([C@@H](C)O)NC1=O | FGFR3 | binding, BLI |  |  | 0.1
CC1=C(C)[C@H](Oc2c(F)cc3c(C)cc(=O)oc3c2F)OC1=O | RMS3 | binding, fluorescence |  |  | 82.6
CC(C)C[C@@H]1NC(=O)[C@H](C(C)C)NC(=O)[C@H](CC(C)C)NC(=O)[C@H](C(C)C)NC(=O)[C@H](Cc2ccccc2)NC(=O)[C@H](C(C)C)NC(=O)[C@H](CCCNC(=N)N)NC(=O)[C@H](CCCNC(=N)N)NC(=O)[C@H](CC(N)=O)NC(=O)[C@@H]2CCCN2C(=O)[C@H](C(C)C)NC(=O)[C@H](CCCNC(=N)N)NC(=O)[C@H](Cc2ccc(O)cc2)NC(=O)[C@H](CC(C)C)NC(=O)[C@@H](Cc2ccc(O)cc2)NC(=O)CSC[C@@H](C(=O)NCC(N)=O)NC1=O | Protein Wnt-3a, with afamin (Mus musculus, UniProt P27467) | binding, SPR single cycle kinetics | immobilised mWnt3a–human afamin complex | 25 °C | 0.318
CSCC[C@H](NC(C)=O)C(=O)N[C@@H](Cc1ccccc1)C(=O)N[C@@H](CC(N)=O)C(=O)N[C@H]1CSCc2cc3cc(c2)CSC[C@H](NC(=O)[C@H]([C@@H](C)O)NC(=O)[C@H](Cc2c[nH]cn2)NC(=O)[C@H](CO)NC(=O)[C@H](Cc2ccc(O)cc2)NC(=O)[C@H](Cc2ccccc2)NC(=O)[C@@H]2CCCN2C(=O)[C@H](CC(C)C)NC(=O)[C@H](CC(C)C)NC1=O)C(=O)N[C@@H](CO)C(=O)N[C@H](C(=O)NCC(=O)N[C@@H](CO)C(=O)NCC(=O)N[C@@H](CO)C(=O)NCC(=O)N[C@@H](CO)C(=O)N[C@@H](CC(=O)O)C(=O)N[C@@H](Cc1ccc(O)cc1)C(=O)N[C@@H](CCCCN)C(=O)N[C@@H](CC(=O)O)C(=O)N[C@@H](CC(=O)O)C(=O)N[C@@H](CC(=O)O)C(=O)N[C@@H](CC(=O)O)C(=O)N[C@@H](CCCCN)C(N)=O)CSC3 | FGFR3 | binding, BLI |  |  | 0.0761
CC[C@H](C)[C@H](NC(=O)[C@H](CCCNC(=N)N)NC(=O)[C@H](CO)NC(=O)[C@@H](NC(=O)[C@H](CC(=O)O)NC(=O)[C@H](CC(=O)O)NC(=O)CCCCCNC(=O)c1ccc2c(c1)C(=O)OC21c2ccc(O)cc2Oc2cc(O)ccc21)[C@@H](C)O)C(=O)N[C@@H](CCC(=O)O)C(=O)N[C@@H](CCC(=O)O)C(=O)N[C@H](C(=O)N[C@@H](CC(=O)O)C(=O)O)C(C)C | FKBP4 (Homo sapiens, UniProt Q02790) | binding, FP |  | pH 7.4 | > 25
N=C(N)Nc1ccc(-c2nc3ccc(-c4ccc5nc(-c6ccc(NC(=N)N)cc6)[nH]c5c4)cc3[nH]2)cc1 | Cy5-labelled r(CUG)12 RNA | binding, microscale thermophoresis |  |  | 0.04 ± 0.006
C=Cc1cc(OC)c2c(c1)c(=O)oc1c2cc(OC)c2c(O)ccc([C@@H]3O[C@H](C)[C@H](O)[C@@](C)(O)[C@H]3O)c21 | Bifunctional protein GlmU (Staphylococcus aureus, UniProt Q5HIH6, G277S) | binding, MST |  |  | 0.0481

A few entries again:
Structure (SMILES) | target | test | test system | conditions | Kd [µM]
CC[C@H](C)[C@H](NC(=O)[C@H](CCCNC(=N)N)NC(=O)[C@H](CCCNC(=N)N)NC(=O)[C@H](CC(C)C)NC(=O)[C@H](CCC(=O)O)NC(=O)[C@H](CCC(N)=O)NC(=O)[C@H](C)NC(=O)[C@@H](NC(=O)[C@H](CNC(=O)CCl)NC(=O)[C@H](CCCNC(=N)N)NC(=O)[C@H](CCCNC(=N)N)NC(=O)[C@@H]1CCCN1C(=O)[C@H](CCCNC(=N)N)NC(=O)[C@H](CCCNC(=N)N)NC(=O)[C@@H]1CCCN1C(=O)[C@H](CCCNC(=N)N)NC(=O)[C@H](CCCNC(=N)N)NC(=O)[C@@H]1CCCN1C(=O)[C@H](CCCNC(=N)N)NC(=O)[C@H](CCCNC(=N)N)NC(=O)[C@@H]1CCCN1C(=O)[C@H](CCCNC(=N)N)NC(=O)[C@H](CCCNC(=N)N)NC(=O)[C@@H]1CCCN1C(C)=O)[C@@H](C)CC)C(=O)NCC(=O)N[C@@H](CC(=O)O)C(=O)N[C@@H](CCC(=O)O)C(=O)N[C@@H](Cc1ccccc1)C(=O)N[C@@H](CC(N)=O)C(=O)N[C@@H](C)C(=O)N[C@@H](Cc1ccc(O)cc1)C(=O)N[C@@H](Cc1ccc(O)cc1)C(=O)N[C@@H](C)C(=O)N[C@@H](CCCNC(=N)N)C(=O)N[C@@H](CCCNC(=N)N)C(N)=O | Bcl-2-related protein A1 (Homo sapiens, UniProt Q16548) | binding, ITC |  |  | 0.023
CC1=C[C@@H](O/C=C2/C(=O)O[C@H]3c4ccccc4C[C@@H]23)OC1=O | RMS3 | binding, fluorescence |  |  | 35.9
